Experimental data pooled from the literature.
A part holds a random share of what one study measured. Positions count from the first letter of the parent shown.

Series 1
Target: CCNB1, cyclin fold, Cln2 fusion (human)
Technique: yeast growth competition, sequencing
Sample: yeast
Setting: weak parent motif
Reference: not given
Reading: higher = stronger binding
Measurement: normalised enrichment score
Starting sequence: CABLES2 docking peptide (human); ICAKRSLCAAFSV
L7A: -0.134
I1A: -0.114
C2A: -0.0462
R5A: 0.0643
F11A: 0.546

Series 2
Target: RNA binding protein fox-1 homolog 2, RRM domain, GST-SBP tag (RBFOX2, Homo sapiens, UniProt O43251-10, residues 100-194)
Technique: RNA Bind-n-Seq
Molecule type: RNA
Sample: in vitro
Concentration: 365 nM
Setting: natural RNA segment, single round, ends assumed
Reference: no-protein control
Reading: higher = stronger binding
Measurement: RBNS enrichment (R)
Target sequence (chain): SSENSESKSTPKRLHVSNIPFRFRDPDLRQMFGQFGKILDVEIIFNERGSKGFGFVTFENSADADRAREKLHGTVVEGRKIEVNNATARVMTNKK
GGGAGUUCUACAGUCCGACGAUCGGUGACUGUUUAACAAGCUGUGCAUCCCCCACAAAAAUAGGAGUGCCCUAUUUGUAGUCUCCACCUCUCUGCACAGCUCCUUCUGGGUGGUCCUCAGCAGGGUUUUGACCUGGAAUUCUCGGGUGCCAA: 0.454
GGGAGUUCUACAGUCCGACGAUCAGCAAGUACAACAAAGAAGCUCUUAGCCCCCCAAGACGCAAAUCCUUCAAGAAAUGGACCCCUCCUCGGUCACCUUUUAAUCUUGUUCAAGAAAUACUUUUCCAUGACCCUGGAAUUCUCGGGUGCCAA: 0.59
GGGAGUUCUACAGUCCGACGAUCGCCGCUGCAGGCCAUUGUACACAAACUGGUUGUAUGUAUCAGACUGCAGAUGGGAGGAGCAGUGGUGCCUCAAGUCUGCACAUGCUCUGCUUCUAGAAGACUGACUGUGGUGGAAUUCUCGGGUGCCAA: 0.483
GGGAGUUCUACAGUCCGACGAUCAAGAGGGAUGGAAGAAAAGAACAAAGAGAAACUGUUCCUCCCACCCCCUUCCCUGAUGCCAGGGGCACCAGACUGAUUCUGAGGCACAAAUAAAAGAGGCUUCAUACCGGUGGAAUUCUCGGGUGCCAA: 0.376
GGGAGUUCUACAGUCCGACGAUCGAUCUGUGCCAUAAUAGAUAUGCAUUGCAAUUGUAUGCCAUGUCUCCAUUUUAAAUUUGAGUUUCCCUUUCGUUUUUACUCACCACCAAAGAAUCUCAAAUGUAAAAUUUUGGAAUUCUCGGGUGCCAA: 0.668
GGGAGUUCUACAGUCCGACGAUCUUUUUACUACUACAGAGAGUCUGUAAAUAAGUGCUUUAAAAAAAUAACAAACCAAUAAGAUAUUUGUCUCCUAUAUAAACAUUCUGUGUAUUUAGCACUUGAAAAUCAACUGGAAUUCUCGGGUGCCAA: 0.934
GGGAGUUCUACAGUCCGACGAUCUCCAUGGCCACACUCCUGUGAAUGGGUAUCGGGGAGUUAGGAUCUUUCUUCUCCCAAUGCCUCUUGCUGGAAGCACUCUAUACCUCUCCACCUCCCUGGACUACUAAGCUUGGAAUUCUCGGGUGCCAA: 0.638
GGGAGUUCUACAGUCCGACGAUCUACAACAGAUGGGAGGGUGAAGGGGGCAGAAUGAAAAUCGAACCAACCUUUUAGCUGUUGCAAAUCAGAAGGAGCCAGAGAAGCAGGCAGUCUCAUGCAUGAGAGGUUACUGGAAUUCUCGGGUGCCAA: 39.5
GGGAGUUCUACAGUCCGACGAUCGCUGCCCGGACACCACGUAAACAUAACACUAAAGAAACUGUCCUGGAGAUCCCAUCCUGCUACUAAGAAGUUUUCUGUACAUCACUUCCAAACAUUGGAAACUUUCAGAUUGGAAUUCUCGGGUGCCAA: 0.606
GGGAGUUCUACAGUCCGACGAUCCUCUUACCAGAGCUGGCUGGCCCACGGCUGGUUUUUCAAACUGAGUGAGCCCCGUAGUGAUGGCCUCUGCCUUGUGCUUGGCCUUCCCCAUUGCCUGCACCUGAAACAGCUGGAAUUCUCGGGUGCCAA: 0.36
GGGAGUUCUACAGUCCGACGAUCGAGAACAUUCAAUCUUGCCGUCACUAUUCAUCAAUGAAGAUUAACACUGAGAUCCAGAGAGGCUGGAUGACUUGCUCAAGUUCACCAGCAUGGUAGUGGCAAAGAGAGGUUGGAAUUCUCGGGUGCCAA: 0.847
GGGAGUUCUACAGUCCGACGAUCAUAUUUUAAUGAUUCACUUGCCAAAUUACUUCCUGGGUGGUAUCAUUUCCUUAUCUCUCUGAUUAUCUUCUGGGACCCACGUCCUUUCCUCCACAUACCUACACCUUGGGUGGAAUUCUCGGGUGCCAA: 0.382

Series 3
Target: Myc proto-oncogene protein, bHLH-zipper, MAX partner unstated (MYC, Homo sapiens, UniProt P01106, residues 368-449)
UniProt P01106, sequence (368-449, looked up): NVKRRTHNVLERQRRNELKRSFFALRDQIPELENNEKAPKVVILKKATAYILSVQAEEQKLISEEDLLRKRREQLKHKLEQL
Technique: protein-binding microarray
Molecule type: double-stranded DNA, one strand shown
Sample: in vitro
Concentration: not given
Setting: k-mer, scored over probes, only values ≥0.25
Reading: higher = stronger binding
Measurement: E-score
CGTGTTAC: 0.385
CCATGGAC: 0.25
AACCGCGT: 0.376
CATGTCTC: 0.306
ACCGCACC: 0.272
ATGCGGTA: 0.335
ACGTGTAA: 0.344
ATGGTCAC: 0.288
GGTGGCCA: 0.302
ACACATGT: 0.457
CATGCATA: 0.289
AGCATGTC: 0.362
CCGTGTGC: 0.312
ATGTGGGA: 0.301
CATGGTAG: 0.379
CATGTCGA: 0.261
ACCCACAC: 0.257
CACCCCTC: 0.273
ATGTGGTA: 0.324
AACTCATG: 0.281
AGCGTGAT: 0.302
CACGAGAC: 0.412
CATGTTCA: 0.344
ATGCCGCC: 0.274
CCCGGCAC: 0.251

Series 4
Target: Interferon regulatory factor 7, full length, phosphomimetic (IRF7, Homo sapiens, UniProt Q92985, residues 1-503, S101K/S471D/S472D/S475D/S476D/S477D/S483D/S484D/S487D)
UniProt Q92985, sequence (whole entry, unmodified, looked up): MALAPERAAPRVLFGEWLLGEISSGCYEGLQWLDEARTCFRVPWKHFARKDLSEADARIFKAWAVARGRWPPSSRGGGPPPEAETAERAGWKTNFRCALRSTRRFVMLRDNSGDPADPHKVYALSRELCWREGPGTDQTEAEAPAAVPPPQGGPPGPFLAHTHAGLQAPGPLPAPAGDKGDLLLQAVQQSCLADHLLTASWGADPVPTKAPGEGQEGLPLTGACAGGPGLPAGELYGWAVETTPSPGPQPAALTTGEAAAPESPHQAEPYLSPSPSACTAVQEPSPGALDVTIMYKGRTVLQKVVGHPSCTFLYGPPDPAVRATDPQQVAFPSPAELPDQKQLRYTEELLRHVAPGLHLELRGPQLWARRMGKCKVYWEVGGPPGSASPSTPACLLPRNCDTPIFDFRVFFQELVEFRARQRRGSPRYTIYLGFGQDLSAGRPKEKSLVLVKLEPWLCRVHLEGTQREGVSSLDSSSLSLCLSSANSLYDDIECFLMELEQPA
Technique: protein-binding microarray
Molecule type: double-stranded DNA, one strand shown
Sample: in vitro
Concentration: 250 nM
Setting: 60-bp whole probe
Together with: salmon DNA 0.4 mg/ml
Reference: random background probes
Reading: higher = stronger binding
Measurement: log fluorescence
All sequences stand within: GCCTAGCAC … GTCTTGATTCGCTTGACGCTGCTG
TTAGGTACCGACTATCGGTTAGTGCTA: 0.379 z-score
TCACGTGACCCTCTCAAACTGTGCTAG: -0.153 z-score
TTAGGACTGGTACTGCTTTAGTGCTAG: 0.282 z-score
TTAGGTTTCCTATTGCTTTAGTGCTAG: 3.43 z-score
TTAGGTCTCGGTTTCGATTAGTGCTAG: 11.3 z-score
GGCGGTTTCCTTATCCTGACGTGCTAG: 2.62 z-score
CACAGAACATATTAGTATATGTGCTAG: -0.00815 z-score
CCTAGTTGTACTTTCTATCTGTGCTAG: 1.1 z-score
TTCTATGACTACATTGCAGCGTGCTAG: 0.0351 z-score
GACGGTATCGGATTCGGGACGTGCTAG: 2.25 z-score
GACGGACTGGGTTATCGGGACGTGCTA: -0.422 z-score
TTAGGTTTCGACTTTCGGTTTGTGCTA: 12.1 z-score
TTAGATATCGGGTATCGATGAGTGCTA: 0.0367 z-score
GACGATTTCAGTCTCCAGACGTGCTAG: -0.00213 z-score
TCTGTTTTCGCTTTCTTTAAGTGCTAG: 9.42 z-score
TTAGGACTGGATACTGGGTTAGTGCTA: -0.714 z-score
GACGGTATCGACTAGCGGGACGTGCTA: -0.285 z-score
TCACTTTTTTTAATTGAACTGTGCTAG: 0.484 z-score
TTAGATATCAGTATCGATTTGTGCTAG: 3.28 z-score

Series 5
Target: Histone acetyltransferase KAT6A, winged helix 1, GST fusion (KAT6A, Homo sapiens, UniProt Q92794, residues 1-85)
Technique: protein binding microarray
Molecule type: double-stranded DNA, one strand shown
Sample: in vitro
Concentration: not given
Setting: 8-mer, flanks averaged, mean of 2 arrays, mostly near background
Reference: not given
Reading: higher = stronger binding
Measurement: E-score
Target sequence (chain): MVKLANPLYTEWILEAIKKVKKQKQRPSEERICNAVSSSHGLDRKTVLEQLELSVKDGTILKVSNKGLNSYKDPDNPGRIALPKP
GGGACGAA: 0.107
GATGTACA: -0.0821
ACTAAAAC: -0.0581
AATATCTA: -0.31
GTGCCATA: -0.0152
CCAAGAAC: -0.189
AAGGCGAC: -0.0151
ATTTCCAC: -0.165
AGGATAGC: -0.0133
AATCTCTG: -0.221
CAAAGTTA: -0.106
CTTACCAA: -0.0186
GCTAGACC: 0.0262
CTATAACC: -0.168
CTCTGCGC: 0.259
GATAGTGA: 0.0178
ACTAGTAC: -0.0732
GGGCTGGA: -0.127
CAGGAGCG: 0.251
CCGCGGGC: 0.44

Mixed results
PhoQ, residues 284 288 289 292 302 303 NLGVHL
fold induction (PhoP, residues 12 14 15 18 19 SYFRT (Escherichia coli, UniProt P23836); Sort-seq, refers to: YFP reporter; E. coli; PhoQ-PhoP variant library, together with: 10 µM Mg2+; reference: high Mg2+ state, higher = stronger signaling): 8.04

A few entries again (series 1):
L7A: -0.134
I1A: -0.114
C2A: -0.0462
R5A: 0.0643
F11A: 0.546
